Experimental data collected from several papers.
Each numbered part is a random draw from the data of one study; scales do not carry over between parts. Positions count from the first letter of the parent shown.

Sample 1 — technique: RNA Bind-n-Seq; molecule type: RNA; sample: in vitro; tested at: 365 nM; baseline: no-protein control; direction: higher = stronger binding
Target: RNA binding protein fox-1 homolog 2, RRM domain, GST-SBP tag (RBFOX2, Homo sapiens, UniProt O43251-10, residues 100-194)
Notes: natural RNA segment, single round, ends assumed
Constant ends, left off below: GGGAGUUCUACAGUCCGACGAUC … UGGAAUUCUCGGGUGCCAA
Construct (chain): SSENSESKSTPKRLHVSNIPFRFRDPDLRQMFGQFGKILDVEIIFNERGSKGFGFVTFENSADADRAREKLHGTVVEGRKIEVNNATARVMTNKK
For `AUUUUUGUUUCUAAAGUGAUUUGUGAUUUGUGCUGUAUAAACUGUAUAAAAGGUUCUGUUUUUAAAGGUGGAUUUUCAUUCCUCUGGGGACAGUGGUCGCCAAGACAUCU`, “RBNS enrichment (R)” read 0.287.
Under “RBNS enrichment (R)”, `AAUUCCAAAAUCUCGAGGAAGCUAGAAAACACAAUCCUGUGGCAGUAAGACAUUCUCCAGUGUUCAGCUUUAGGGAUUUUCUAUUUGGCAGCCAUAGGCAAUGCUUAUUU` is recorded as 0.283.
For `UCUUUGCCUCAGGAGCUGACUCAUGCCAUAGAGAGGGGACUGUAGACCAGGCUGGGGCUGCUGCCCUCCCACACGAGGUACUGAUGGAUCCUGGUUCUAUUCUGGGUAUU`, “RBNS enrichment (R)” read 0.338.
`CCAGCAUCCCAGUGAAGUUCGUCCAGCUCCAGUUAGGUGGAUUCUGGAGUUCGGAGAGGGUUUAAAGUUUGGCUGAAAUAGCACCUCAAGUGGGGUUUAGUUUUAUUUUU`: “RBNS enrichment (R)” 1.3.
`CCUGCCCGGUGCCUCCCACUGACCUGAGCUUACUAAGGGAUGGCAGCAGCUCCCCAGAAAAAAACGACACUGCGAGCCCUCGGGACAUGACUGAGUUCCACCUCCUGAAG`: “RBNS enrichment (R)” 0.477.
`CACACAGACGAAGGUAGCCAGUCACAAGGUUCUGUGCCACCCUGGCCCUAGUGCUUCCAUCUGAUGGGGUGACCACACCCCUCACAUUCCACAGGCCUGAUUUUUAUAAA`: “RBNS enrichment (R)” 0.727.
For `GCUCCCGCUUCUGCUCUGCUUGGGCUCACAGGUAUGCACUGGCUGGGUGUGGAUGAGUAUUUUUCUGACCCCAGCCCUGCAGUGGAACCUAAUAAAAGCACCUGAAGCGA`, “RBNS enrichment (R)” read 0.389.
Under “RBNS enrichment (R)”, `AACACACAUAUAUAUAGUGAUUUCUAAAGAUUUGUUUACUUUUGUGUUUUGUUUUACUGUACUAAGAACUUGUCCUUUCUCCUUGAAUCAAAGUAGGACAUGCAUCAUCC` is recorded as 0.608.
For `UACCCCACACAGGGUGGCAGAACUUGAAGGGUUACUGACGUGUAAAUGCUGGUAUUUGAUUUCCUGUGUGUGUUGCCCUGGCAUUAAGGGCAUUUUACCCUUGCAGUUUU`, “RBNS enrichment (R)” read 0.456.
`AAAGUUCCAGAGUAAACAAAUGGUGCCAUCAUUCAAGAUAACAUGCUGAUCACCCUCCUCCCAAAAAGCAAGAGCUUGUUUAUGGCUGAGGAAUCGGCGGAUUGUCUGAA`: “RBNS enrichment (R)” 0.459.
For `CACUGAGAGUCAGGGCAUGGUGCUGCGGGGGAGGGCUCUUUUCUAUAUUUAUUUGAUAGCGAUAAGUCUCCGAAGGGAGUGGAAAUGCAGUCAGCCUGGGCCCUUAGCCC`, “RBNS enrichment (R)” read 0.522.
Under “RBNS enrichment (R)”, `CUACCCACCUGGUGGACCCAGGGACUGAAGCAAUGGCACAGAGACCAUGACAGACUGUGCUCCUAUCCUGGGUUGAGUCCCGAUGCAUAUUCCUGCUUCAUUUCCUUUUC` is recorded as 0.519.

Sample 2 — technique: RNA Bind-n-Seq; molecule type: RNA; sample: in vitro; tested at: 200 nM; notes: whole 134-nt RNA, ends assumed; with: 150 mM KCl; baseline: input library; direction: higher = stronger binding
Target: Fragile X messenger ribonucleoprotein 1, C-terminal low-complexity region (Fmr1, Mus musculus, UniProt P35922)
Constant ends, left off below: GGGAGUUCUACAGUCCGACGAUC … UGGAAUUCUCGGGUGUCAAGG
`UAACUUUAGAGGAGGAUCUGAUGGAUAUGGCAGUGGACGUGGAUUUGGGGAUGGCUAUAAUGGGUAUGGAGGAGGUCCUGGAGGUGGCAA` gave a log2 enrichment of 0.296.
The log2 enrichment of `UUCCUCAAGUCCUGUGCUACACAUCGUAUGUACCGAAUCGGAGGAGGGAGGAAAGUAUUAUGUUACGCCGUUCGGAUCUGCACUUCCAGC` is reported as -0.536.
With `CUCAAGUCCUGUGCUACACAUCGUAUGUACCGAAUCGGAGGUUUUUGGAAAGGAAAGUAUUAUGUUACGCCGUUCGGAUCUGCACUUCCA` the log2 enrichment was -0.482.
`UAACUUUAGAGGAGGAUCUGAUGGAUAUGGCAGUGGACGUGGAUUUGGGGACGGCUAUAAUGGGUAUGGAGGAGGACCUGGAGGUGGCAA` has a log2 enrichment of 0.178.
With `CUGUGCUACACAUCGUAUGUACCGAAUCGGGGAAAAAAAGGGAAAAAAAGGGGAAAAAAAGGAAAGUAUUAUGUUACGCCGUUCGGAUCU` the log2 enrichment was -0.33.
The log2 enrichment of `UCAAGUCCUGUGCUACACAUCGUAUGUACCGAAUCGGAAAAAAAGGAAAGGAGGAAAGUAUUAUGUUACGCCGUUCGGAUCUGCACUUCC` is reported as -0.525.
With `UUAGAAGAAGUGGAAAGGAAAAAACGCCAAAGGGAGUUGGAAAUUGAAGAACGAGAACGGCGUAGAGAGGAAGAGAGAAGACUUGGCGAU` the log2 enrichment was 0.00479.
The log2 enrichment of `CAAGUCCUGUGCUACACAUCGUAUGUACCGAAUCGGGUUUGGGGUUUGGUUUGGGAAAGUAUUAUGUUACGCCGUUCGGAUCUGCACUUC` is reported as -0.0245.
The log2 enrichment of `UCAAGUCCUGUGCUACACAUCGUAUGUACCGAAUCGGGUUGGGUUGGGGUUGGGAAAGUAUUAUGUUACGCCGUUCGGAUCUGCACUUCC` is reported as 1.38.
With `CAAGUCCUGUGCUACACAUCGUAUGUACCGAAUCGGGGAGGGGUUUGGGGAGGGGAAAGUAUUAUGUUACGCCGUUCGGAUCUGCACUUC` the log2 enrichment was 1.45.
The log2 enrichment of `UGGCUCUGGUGGCAUGCGGGGAGGAAGAGGUGGCCUCAUGGAUCGUGGUGGUCCCGGUGGAAUGUUCAGAGGUGGCCGUGGUGGAGACAG` is reported as 0.348.
For `CAAGUCCUGUGCUACACAUCGUAUGUACCGAAUCGGGUUUGGGGUUUGGGUUUGGAAAGUAUUAUGUUACGCCGUUCGGAUCUGCACUUC`, the log2 enrichment was -0.0142.
With `CUGUGCUACACAUCGUAUGUACCGAAUCGGUUUUUUUGGUUUUUUUGGGGUUUUUUUGGGGAAAGUAUUAUGUUACGCCGUUCGGAUCUG` the log2 enrichment was -0.923.
The log2 enrichment of `ACCAUGCAGGUGGGCAUCUUUGGGAAGUGGGGCAAGGGGGGAAUAGGGAGGGGGGUAACACUUUGGGAACAGGUGGUCCCAGGUCGUUUC` is reported as 0.757.

Sample 3 — technique: DHFR PCA, deep sequencing; sample: yeast; with: (+)-ABA 0.0091 µM; baseline: wild-type fitted maximum; direction: higher = stronger binding
Target: ABI1, truncated, D143A, DHFR fusion (Arabidopsis thaliana)
Notes: methotrexate growth selection, single substitutions
Starting sequence: PYL1, truncated, DHFR fusion (Arabidopsis thaliana); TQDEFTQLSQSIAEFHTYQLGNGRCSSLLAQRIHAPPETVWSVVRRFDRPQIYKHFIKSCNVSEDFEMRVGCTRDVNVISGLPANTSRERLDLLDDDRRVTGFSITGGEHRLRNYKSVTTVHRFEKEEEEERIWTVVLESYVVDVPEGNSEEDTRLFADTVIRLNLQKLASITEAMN; partner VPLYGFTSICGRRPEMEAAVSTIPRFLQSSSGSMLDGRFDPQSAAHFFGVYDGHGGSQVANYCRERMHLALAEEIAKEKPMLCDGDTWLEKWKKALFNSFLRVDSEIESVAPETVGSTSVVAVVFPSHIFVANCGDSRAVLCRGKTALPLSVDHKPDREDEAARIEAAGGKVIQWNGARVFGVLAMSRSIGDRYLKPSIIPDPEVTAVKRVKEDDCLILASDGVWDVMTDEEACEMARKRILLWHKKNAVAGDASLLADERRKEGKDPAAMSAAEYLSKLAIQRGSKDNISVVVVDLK
`W134N`: “relative binding score” 7.63%.
`E139T`: “relative binding score” 8.57%.
`Q31K`: “relative binding score” 9.51%.
For `D159S`, “relative binding score” read -1.12%.
Under “relative binding score”, `L112K` is recorded as -1.18%.
Under “relative binding score”, `L169M` is recorded as 2.18%.
`T135Q` — result for “relative binding score”: 3.94%.
`P37R` — result for “relative binding score”: -0.0609%.
`R88D` — result for “relative binding score”: -4.56%.
For `L29A`, “relative binding score” read 1.46%.
`E89G`: “relative binding score” 2.08%.
For `L138K`, “relative binding score” read 0.567%.
Under “relative binding score”, `R46L` is recorded as 3.4%.
`W41K`: “relative binding score” -11.7%.
`Q19F`: “relative binding score” -1.74%.
`C72K`: “relative binding score” -1.97%.

Sample 4 — target: CCND1, cyclin fold, Cln2 fusion (human); technique: yeast growth competition, sequencing; sample: yeast; notes: strong parent motif; baseline: not given; direction: higher = stronger binding
Starting sequence: PKN2 docking peptide (human); VSAVRKLDFSDTM; partner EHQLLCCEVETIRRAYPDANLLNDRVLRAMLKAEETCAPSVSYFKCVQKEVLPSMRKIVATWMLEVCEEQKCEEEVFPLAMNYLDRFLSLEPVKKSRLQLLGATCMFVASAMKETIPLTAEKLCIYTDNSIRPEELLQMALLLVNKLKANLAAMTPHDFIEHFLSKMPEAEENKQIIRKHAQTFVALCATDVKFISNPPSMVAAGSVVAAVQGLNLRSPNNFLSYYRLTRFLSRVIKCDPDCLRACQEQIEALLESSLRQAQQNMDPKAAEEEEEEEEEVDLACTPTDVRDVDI
`T12V`: “normalised enrichment score” 5.14.
`S2Y`: “normalised enrichment score” 3.03.
`R5M`: “normalised enrichment score” 3.03.
For `S2R`, “normalised enrichment score” read 5.08.
Under “normalised enrichment score”, `R5E` is recorded as 0.809.
Under “normalised enrichment score”, `S2E` is recorded as 1.56.
`D11S` — result for “normalised enrichment score”: 4.87.
For `S10L`, “normalised enrichment score” read 3.8.
Under “normalised enrichment score”, `V4T` is recorded as 2.35.
`A3L` — result for “normalised enrichment score”: 1.01.
`A3H` — result for “normalised enrichment score”: 0.835.
For `D11W`, “normalised enrichment score” read 3.59.
For `S2P`, “normalised enrichment score” read 3.4.
`F9R`: “normalised enrichment score” -0.0355.
For `R5Y`, “normalised enrichment score” read 1.27.
For `V4A`, “normalised enrichment score” read 5.32.
Under “normalised enrichment score”, `S10H` is recorded as 3.98.
`L7W` — result for “normalised enrichment score”: 0.203.
`L7S` — result for “normalised enrichment score”: -0.0329.
For `L7H`, “normalised enrichment score” read 0.1.
For `D8G`, “normalised enrichment score” read 0.726.
`S10R` — result for “normalised enrichment score”: 4.27.
`S10E` — result for “normalised enrichment score”: 5.13.
`K6D` — result for “normalised enrichment score”: 0.565.
Under “normalised enrichment score”, `D11R` is recorded as 3.73.

Other studies, line by line
With `PhoQ, residues 284 288 289 292 302 303 GASLAW` the fold induction was 3.1 (PhoP, residues 12 14 15 18 19 NQFFI (Escherichia coli, UniProt P23836); Sort-seq, item: YFP reporter; E. coli; PhoQ-PhoP variant library, with: 10 µM Mg2+; baseline: high Mg2+ state, higher = stronger signaling).
